Results gathered from unrelated publications.
Each numbered part is a random draw from the data of one study; scales do not carry over between parts. Several values in a cell are separate wells, animals, samples, runs or records. Positions count from the first letter of the parent shown.

Sample 1
Target: Histone acetyltransferase KAT6A, winged helix 1, GST fusion (KAT6A, Homo sapiens, UniProt Q92794, residues 1-85)
Technique: protein binding microarray
Form: double-stranded DNA, one strand shown
Sample: in vitro
Tested at: not given
Notes: 8-mer, flanks averaged, mean of 2 arrays, mostly near background
Reference: not given
Direction: higher = stronger binding
Construct (chain): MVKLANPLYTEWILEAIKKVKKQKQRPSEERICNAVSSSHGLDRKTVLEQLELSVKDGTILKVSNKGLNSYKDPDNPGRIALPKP
`CTCGAGCC` has an E-score of -0.0384.
With `ACAGGTAG` the E-score was -0.114.
With `AACCAGAA` the E-score was -0.123.
For `GTTCCGAA`, the E-score was 0.0686.
The E-score of `ATTAGTGC` is reported as -0.132.

Sample 2
Target: Interferon regulatory factor 5, full length, phosphomimetic (IRF5, Homo sapiens, UniProt Q13568-2, residues 1-514, S451D/S453D/S456D/S462D)
Technique: protein-binding microarray
Form: double-stranded DNA, one strand shown
Sample: in vitro
Tested at: 940 nM top
Notes: 60-bp whole probe
Added: salmon DNA 0.4 mg/ml
Reference: random background probes
Direction: higher = stronger binding
Shared flanks, not repeated: GCCTAGCAC … GTCTTGATTCGCTTGACGCTGCTG
`GACGATTTCGGGTATCGAGTCGTGCTA` — result for “fitted relative affinity”: 2.45 z-score.
`TTAGAACTGGGTCTCGGTTAGTGCTAG` — result for “fitted relative affinity”: 1.32 z-score.
`TCATGTTTTCATTTTATACTGTGCTAG` — result for “fitted relative affinity”: 1.29 z-score.
Under “fitted relative affinity”, `TCAACTTTCCACTTGTCACTGTGCTAG` is recorded as 1.29 z-score.
For `TTGACTCTTTCTGTCAGTTTGTGCTAG`, “fitted relative affinity” read 1.15 z-score.

Sample 3
Target: CCNB2, cyclin fold, Cln2 fusion (human)
Technique: yeast growth competition, sequencing
Sample: yeast
Notes: weak parent motif
Reference: not given
Direction: higher = stronger binding
Parent: CDC6 docking peptide (human); TLKGRRLVFDNQL
For `D10W`, “normalised enrichment score” read 0.279.
`L7H`: “normalised enrichment score” 0.546.
`G4M`: “normalised enrichment score” 0.575.
For `T1D`, “normalised enrichment score” read -0.435.
For `G4E`, “normalised enrichment score” read 0.0798.

Single results of other studies
The fold induction of `PhoQ, residues 284 288 289 292 302 303 ALASRC` is reported as 11 and 9.97 (PhoP, residues 12 14 15 18 19 LWHCS (Escherichia coli, UniProt P23836); Sort-seq, item: YFP reporter; E. coli; PhoQ-PhoP variant library, added: 10 µM Mg2+; reference: high Mg2+ state, higher = stronger signaling).

A few entries again (sample 1):
`CTCGAGCC` has an E-score of -0.0384.
